{"sequences": {"note": "Sequences of proteins named here, by UniProt entry; tags and fusion partners are left off. Residues count along the entry.", "UniProt P02769, 25-607 limits assumed": "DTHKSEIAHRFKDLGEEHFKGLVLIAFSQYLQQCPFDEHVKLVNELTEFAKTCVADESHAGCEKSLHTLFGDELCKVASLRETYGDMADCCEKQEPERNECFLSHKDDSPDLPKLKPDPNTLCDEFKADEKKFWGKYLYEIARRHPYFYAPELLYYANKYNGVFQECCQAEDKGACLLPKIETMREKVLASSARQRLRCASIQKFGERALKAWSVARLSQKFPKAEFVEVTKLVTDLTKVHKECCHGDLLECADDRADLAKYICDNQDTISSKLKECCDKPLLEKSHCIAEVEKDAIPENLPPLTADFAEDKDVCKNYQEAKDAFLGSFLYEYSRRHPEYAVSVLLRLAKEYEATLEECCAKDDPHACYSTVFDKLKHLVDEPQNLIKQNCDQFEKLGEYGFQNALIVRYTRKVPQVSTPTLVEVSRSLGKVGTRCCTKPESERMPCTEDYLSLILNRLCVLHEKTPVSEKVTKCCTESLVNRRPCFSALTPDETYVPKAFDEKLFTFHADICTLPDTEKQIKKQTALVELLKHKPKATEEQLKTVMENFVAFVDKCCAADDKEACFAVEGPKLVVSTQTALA", "UniProt Q12809, whole entry": "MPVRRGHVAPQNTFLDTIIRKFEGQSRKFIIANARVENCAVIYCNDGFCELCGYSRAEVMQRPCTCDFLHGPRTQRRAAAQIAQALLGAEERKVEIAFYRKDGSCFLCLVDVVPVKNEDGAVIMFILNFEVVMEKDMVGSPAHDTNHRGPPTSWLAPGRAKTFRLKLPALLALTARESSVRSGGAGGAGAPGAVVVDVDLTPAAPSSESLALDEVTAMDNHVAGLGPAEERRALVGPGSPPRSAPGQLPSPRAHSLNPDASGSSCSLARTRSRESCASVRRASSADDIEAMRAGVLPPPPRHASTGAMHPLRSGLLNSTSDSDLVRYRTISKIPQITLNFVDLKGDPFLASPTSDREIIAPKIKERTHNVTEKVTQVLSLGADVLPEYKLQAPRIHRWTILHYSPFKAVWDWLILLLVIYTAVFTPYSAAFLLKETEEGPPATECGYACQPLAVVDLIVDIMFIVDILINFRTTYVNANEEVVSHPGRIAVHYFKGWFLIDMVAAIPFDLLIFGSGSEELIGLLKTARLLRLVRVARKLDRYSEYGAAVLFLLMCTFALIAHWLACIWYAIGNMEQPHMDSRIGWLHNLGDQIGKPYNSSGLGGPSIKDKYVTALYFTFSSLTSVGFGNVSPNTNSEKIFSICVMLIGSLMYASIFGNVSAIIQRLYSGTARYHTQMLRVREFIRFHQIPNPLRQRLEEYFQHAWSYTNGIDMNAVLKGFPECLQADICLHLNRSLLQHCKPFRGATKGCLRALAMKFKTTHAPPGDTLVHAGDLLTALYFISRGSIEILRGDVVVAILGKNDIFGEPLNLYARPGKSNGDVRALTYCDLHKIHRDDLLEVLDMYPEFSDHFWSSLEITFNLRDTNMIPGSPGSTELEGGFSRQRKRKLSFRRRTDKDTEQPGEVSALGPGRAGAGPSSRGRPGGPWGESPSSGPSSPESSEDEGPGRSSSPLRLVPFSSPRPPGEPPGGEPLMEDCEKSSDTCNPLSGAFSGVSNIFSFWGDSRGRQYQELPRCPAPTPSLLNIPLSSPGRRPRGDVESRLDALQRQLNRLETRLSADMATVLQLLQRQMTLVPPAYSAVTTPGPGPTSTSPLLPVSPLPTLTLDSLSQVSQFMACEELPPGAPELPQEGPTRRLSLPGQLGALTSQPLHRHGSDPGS", "UniProt P18825, whole entry": "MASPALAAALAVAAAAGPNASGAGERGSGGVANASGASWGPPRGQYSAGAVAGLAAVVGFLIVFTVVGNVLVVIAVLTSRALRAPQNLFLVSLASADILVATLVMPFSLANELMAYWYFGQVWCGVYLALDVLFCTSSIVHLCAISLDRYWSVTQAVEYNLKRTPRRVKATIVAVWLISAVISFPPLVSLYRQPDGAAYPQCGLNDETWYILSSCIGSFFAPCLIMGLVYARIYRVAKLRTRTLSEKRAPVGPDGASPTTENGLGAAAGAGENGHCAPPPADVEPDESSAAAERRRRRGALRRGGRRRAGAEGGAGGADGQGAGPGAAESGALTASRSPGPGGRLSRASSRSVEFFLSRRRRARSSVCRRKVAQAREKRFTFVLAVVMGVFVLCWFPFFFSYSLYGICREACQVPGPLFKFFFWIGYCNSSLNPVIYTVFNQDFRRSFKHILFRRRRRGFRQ", "UniProt P08684, whole entry": "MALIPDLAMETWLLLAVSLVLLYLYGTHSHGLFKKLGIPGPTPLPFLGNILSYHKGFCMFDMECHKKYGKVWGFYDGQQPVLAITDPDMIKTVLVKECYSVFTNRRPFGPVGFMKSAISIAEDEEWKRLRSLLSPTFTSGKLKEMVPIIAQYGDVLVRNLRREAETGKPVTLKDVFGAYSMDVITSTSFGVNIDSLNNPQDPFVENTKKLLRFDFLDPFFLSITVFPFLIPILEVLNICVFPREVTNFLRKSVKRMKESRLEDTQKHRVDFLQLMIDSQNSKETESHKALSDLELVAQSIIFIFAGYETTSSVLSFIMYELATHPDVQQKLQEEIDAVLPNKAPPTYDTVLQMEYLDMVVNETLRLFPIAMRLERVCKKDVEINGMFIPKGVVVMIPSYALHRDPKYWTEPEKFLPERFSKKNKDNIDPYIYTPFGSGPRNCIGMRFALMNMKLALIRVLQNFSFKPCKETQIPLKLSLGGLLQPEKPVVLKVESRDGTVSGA", "UniProt P08183, whole entry": "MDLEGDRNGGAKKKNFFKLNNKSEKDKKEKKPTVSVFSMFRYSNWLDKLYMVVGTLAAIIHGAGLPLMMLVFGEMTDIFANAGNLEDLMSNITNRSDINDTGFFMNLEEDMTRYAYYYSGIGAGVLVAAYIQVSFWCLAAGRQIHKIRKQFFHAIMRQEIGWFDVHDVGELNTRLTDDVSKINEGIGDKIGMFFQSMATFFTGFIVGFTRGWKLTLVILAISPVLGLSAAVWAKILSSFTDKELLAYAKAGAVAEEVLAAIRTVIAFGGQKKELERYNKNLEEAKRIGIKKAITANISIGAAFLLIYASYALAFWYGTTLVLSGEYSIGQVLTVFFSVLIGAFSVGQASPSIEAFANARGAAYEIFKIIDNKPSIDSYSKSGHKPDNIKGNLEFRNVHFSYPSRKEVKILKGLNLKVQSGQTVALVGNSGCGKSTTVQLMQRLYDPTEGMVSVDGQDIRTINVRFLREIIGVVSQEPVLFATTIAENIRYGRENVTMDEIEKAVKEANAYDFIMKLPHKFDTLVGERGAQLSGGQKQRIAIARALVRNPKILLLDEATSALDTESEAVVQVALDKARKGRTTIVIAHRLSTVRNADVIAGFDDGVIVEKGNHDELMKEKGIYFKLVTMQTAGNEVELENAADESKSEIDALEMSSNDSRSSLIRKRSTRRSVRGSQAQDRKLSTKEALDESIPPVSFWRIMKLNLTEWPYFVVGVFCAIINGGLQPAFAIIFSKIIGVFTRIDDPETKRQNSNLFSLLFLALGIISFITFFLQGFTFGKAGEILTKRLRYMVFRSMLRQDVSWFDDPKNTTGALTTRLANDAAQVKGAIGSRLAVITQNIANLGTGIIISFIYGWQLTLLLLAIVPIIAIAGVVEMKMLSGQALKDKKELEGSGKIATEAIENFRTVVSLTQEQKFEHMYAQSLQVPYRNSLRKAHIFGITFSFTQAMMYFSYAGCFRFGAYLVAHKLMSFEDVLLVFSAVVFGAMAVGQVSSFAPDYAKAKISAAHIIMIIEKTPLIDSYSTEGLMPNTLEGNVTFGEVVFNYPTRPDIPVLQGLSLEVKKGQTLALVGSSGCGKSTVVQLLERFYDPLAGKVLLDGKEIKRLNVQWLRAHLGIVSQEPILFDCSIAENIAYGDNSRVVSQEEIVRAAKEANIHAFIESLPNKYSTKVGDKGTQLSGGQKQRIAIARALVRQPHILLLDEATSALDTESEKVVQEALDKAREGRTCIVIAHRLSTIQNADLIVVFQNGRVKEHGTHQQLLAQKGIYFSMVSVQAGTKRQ"}, "data": "Assay results of several laboratories", "ALB": "Albumin (ALB, Bos taurus, UniProt P02769)", "note": "± marks the error that the study gave."}
{"Substance": "CC#C/C(=N\\OC[C@H]1COCCN1)c1ccc2ncnc(Nc3ccc(OCc4cccc(F)c4)c(Cl)c3)c2c1", "test system": "nude mouse, plasma", "setting": "oral, 12.5 mg/kg", "measurement": "Tmax", "result": "1 h"}
{"Substance": "COc1ccc(C[C@@H](C)NC[C@H](O)c2ccc(O)c(NC=O)c2)cc1", "tested on": "RD", "assay": "cytotoxicity", "setting": "72 h", "measurement": "CC50", "result": "146 ± 27.8 µM"}
{"Substance": "CSCC[C@@H](C=O)NC(=O)[C@H](CC(C)C)NC(=O)[C@H](CC(C)C)NC(C)=O", "tested on": "A549", "assay": "neutral red uptake", "setting": "48 h", "measurement": "CC50", "result": "> 100 µM"}
{"Substance": "CC(CCC(=O)N(CCNC(=O)C(F)(F)F)CC(=O)O)[C@H]1CC[C@H]2[C@@H]3[C@H](O)C[C@@H]4C[C@H](O)CC[C@]4(C)[C@H]3C[C@H](O)[C@]12C (stereo partly shown)", "assay": "LC-MS/MS", "test system": "mouse, gallbladder", "setting": "oral, 150 mg/kg", "measurement": "gallbladder concentration", "result": "14.8 mM"}
{"Substance": "CC[C@@H](C(N)=O)N1CCCC1=O", "assay": "LC-MS/MS", "test system": "rat, control, whole blood", "setting": "oral, 50 mg/kg levetiracetam, added: atropine 5 mg/kg", "measurement": "Cmax", "result": "29500 ng/mL"}
{"Substance": "[N-]=[N+]=NCCCCCCCC(=O)O", "tested on": "Escherichia coli", "setting": "concentration not given", "measurement": "growth reduction", "result": "≤ 50%"}
{"Substance": "zidovudine", "tested on": "CCRF-CEM", "assay": "cytotoxicity", "measurement": "CC50", "result": "14.3 µM"}
{"Substance": "CC(C)[C@@H](CN1CCC(C)(c2cccc(O)c2)CC1)NC(=O)[C@H]1Cc2ccc(O)cc2CN1", "tested on": "Voltage-gated inwardly rectifying potassium channel KCNH2 (KCNH2, Homo sapiens, UniProt Q12809)", "assay": "radioligand binding", "test system": "hERG-expressing membranes", "setting": "60 min, pH 7.4, added: [3H]astemizole", "measurement": "Ki", "result": "> 10 µM"}
{"Substance": "CC(=O)N1C[C@@H](COP(=O)(N(C)C)N2C[C@@H](COP(=O)(N(C)C)N3C[C@@H](COP(=O)(N(C)C)N4C[C@@H](COP(=O)(N(C)C)N5C[C@@H](COP(=O)(N(C)C)N6C[C@@H](COP(=O)(N(C)C)N7C[C@@H](COP(=O)(N(C)C)N8C[C@@H](COP(=O)(N(C)C)N9C[C@@H](COP(=O)(N(C)C)N%10C[C@@H](COP(=O)(N(C)C)N%11C[C@@H](COP(=O)(N(C)C)N%12C[C@@H](COP(=O)(N(C)C)N%13C[C@@H](COP(=O)(N(C)C)N%14C[C@@H](COP(=O)(N(C)C)N%15C[C@@H](COP(=O)(N(C)C)N%16C[C@@H](COP(=O)(N(C)C)N%17C[C@@H](COP(=O)(N(C)C)N%18C[C@@H](COP(=O)(N(C)C)N%19C[C@@H](COP(=O)(N(C)C)N%20C[C@@H](COP(=O)(N(C)C)N%21C[C@@H](COP(=O)(N(C)C)N%22C[C@@H](COP(=O)(N(C)C)N%23C[C@@H](COP(=O)(N(C)C)N%24CCN(C(=O)CCCN%25C(=O)CC(SC[C@H](NC(=O)[C@H](CCCNC(=N)N)NC(=O)[C@H](CCCNC(=N)N)NC(=O)[C@H](CCCNC(=N)N)NC(=O)[C@H](CCCNC(=N)N)NC(=O)[C@H](Cc%26ccccc%26)NC(=O)[C@H](Cc%26ccccc%26)NC(=O)[C@H](CCCNC(=N)N)NC(=O)[C@H](CCCNC(=N)N)NC(=O)[C@H](CCCNC(=N)N)NC(=O)[C@H](CCCNC(=N)N)NC(=O)[C@@H](N)CCCNC(=N)N)C(N)=O)C%25=O)CC%24)O[C@@H](n%24cnc%25c(=O)[nH]c(N)nc%25%24)C%23)O[C@@H](n%23cc(C)c(=O)[nH]c%23=O)C%22)O[C@@H](n%22ccc(N)nc%22=O)C%21)O[C@@H](n%21cnc%22c(N)ncnc%22%21)C%20)O[C@@H](n%20cc(C)c(=O)[nH]c%20=O)C%19)O[C@@H](n%19ccc(N)nc%19=O)C%18)O[C@@H](n%18cc(C)c(=O)[nH]c%18=O)C%17)O[C@@H](n%17cc(C)c(=O)[nH]c%17=O)C%16)O[C@@H](n%16cnc%17c(=O)[nH]c(N)nc%17%16)C%15)O[C@@H](n%15ccc(N)nc%15=O)C%14)O[C@@H](n%14cnc%15c(=O)[nH]c(N)nc%15%14)C%13)O[C@@H](n%13ccc(N)nc%13=O)C%12)O[C@@H](n%12ccc(N)nc%12=O)C%11)O[C@@H](n%11cnc%12c(N)ncnc%12%11)C%10)O[C@@H](n%10cc(C)c(=O)[nH]c%10=O)C9)O[C@@H](n9cc(C)c(=O)[nH]c9=O)C8)O[C@@H](n8cc(C)c(=O)[nH]c8=O)C7)O[C@@H](n7cc(C)c(=O)[nH]c7=O)C6)O[C@@H](n6cc(C)c(=O)[nH]c6=O)C5)O[C@@H](n5cnc6c(=O)[nH]c(N)nc65)C4)O[C@@H](n4cc(C)c(=O)[nH]c4=O)C3)O[C@@H](n3cnc4c(=O)[nH]c(N)nc43)C2)O[C@@H](n2cnc3c(=O)[nH]c(N)nc32)C1 (stereo partly shown)", "tested on": "BCBL1 cells", "setting": "8 µM", "scale": "baseline: mock-treated", "measurement": "viability", "result": "103%"}
{"Substance": "O=[N+]([O-])c1cc2c(ccc3c4cc([N+](=O)[O-])oc4ccc23)o1", "tested on": "Vero", "assay": "ATP", "setting": "72 h", "measurement": "CC50", "result": "21.5 µg/mL"}
{"Substance": "Cc1cc2ccccc2n1CCNC(=O)c1ccc(-c2nnn[nH]2)cc1", "test system": "mouse liver microsomes", "measurement": "half-life", "result": "0.417 h"}
{"Substance": "CC[C@H](C)[C@H](NC(=O)[C@H](Cc1ccc(O)cc1)NC(=O)[C@H](CO)NC(=O)[C@H](CCC(=O)O)NC(=O)[C@H](CCC(=O)O)NC(=O)[C@H](CC(C)C)NC(=O)[C@H](CCCCN)NC(=O)[C@H](CCCCN)NC(=O)[C@@H](NC(=O)[C@@H](NC(=O)[C@H](CCC(=O)O)NC(=O)[C@H](CCC(=O)O)NC(=O)[C@H](CC(C)C)NC(=O)[C@H](CCCCN)NC(=O)[C@H](CCCCN)NC(=O)[C@H](CCSC)NC(=O)[C@H](CCC(=O)O)NC(=O)[C@H](Cc1ccc(O)cc1)NC(=O)[C@H](CCC(=O)O)NC(=O)[C@H](CC(C)C)NC(=O)[C@H](CC(=O)O)NC(=O)[C@H](CC(C)C)NC(=O)[C@H](CC(C)C)NC(=O)[C@@H](NC(=O)[C@@H](NC(=O)[C@H](CC(N)=O)NC(=O)[C@@H](NC(=O)[C@H](CCC(N)=O)NC(=O)[C@@H](NC(=O)[C@H](CC(C)C)NC(=O)[C@H](CO)NC(C)=O)[C@@H](C)O)[C@@H](C)CC)[C@@H](C)O)[C@@H](C)O)C(C)C)C(C)C)C(=O)N[C@@H](CC(=O)O)C(=O)N[C@@H](CC(C)C)C(=O)N[C@@H](CCCCN)C(=O)N[C@@H](CCC(=O)O)C(=O)N[C@@H](CC(C)C)C(N)=O", "tested on": "Huh-7", "assay": "cytotoxicity", "setting": "48 h", "measurement": "CC50", "result": "> 100 µM"}
{"Substance": "C=C(C)[C@@H]1[C@H]2OC(=O)[C@@H]1[C@]1(O)C[C@H]3O[C@]34C(=O)O[C@H]2[C@]14C", "test system": "male NIH-NCI Swiss mice, dead animals, brain", "setting": "intraperitoneal, 2 mg/kg, 20 to 30 min after dosing", "measurement": "brain concentration", "result": "376 ± 120 nM"}
{"Substance": "COc1cc(OC)c2ccccc2c1C=C1C(=O)NC(=S)NC1=O", "tested on": "DLBCL cell lines except HBL1", "setting": "4 µM, 48 h", "measurement": "viability", "result": "≥ 60%"}
{"Substance": "CCCSc1nc(N[C@@H]2C[C@H]2c2ccc(F)c(F)c2)c2nnn([C@@H]3C[C@H](OCCO)[C@@H](O)[C@H]3O)c2n1", "test system": "STEMI patients, plasma", "setting": "180 mg loading dose, 6 h, median, added: morphine", "measurement": "AUC(0-6 h)", "result": "579 ng·h/mL"}
{"Substance": "CCN1CCN(Cc2ccc(NC(=O)c3ccc(C)c(/C=C/c4cnc5[nH]ccc5c4OC)c3)cc2C(F)(F)F)CC1", "tested on": "ETV6-NTRK3 fusion", "assay": "kinase-CDC37 interaction, inhibitor", "test system": "human cells", "setting": "5 µM", "scale": "baseline: vehicle", "measurement": "log2 fold change", "result": -1.12}
{"Substance": "COC(=O)c1ccc(Cl)cc1NC(=O)CSc1ncc(S(=O)(=O)c2ccc(Br)cc2)c(=O)[nH]1", "assay": "dynamic light scattering", "test system": "assay buffer", "setting": "40 µM, with Tween 20", "measurement": "particle size", "result": "7.5 nm"}
{"Substance": "CCOc1ccc2cc(-c3nn(CC4CCN(C)CC4)c4ncnc(N)c34)ccc2n1", "tested on": "Salmonella enterica serovar Typhimurium", "assay": "Ames test", "setting": "added: S9 metabolic activation", "measurement": "mutagenicity", "result": "negative"}
{"Substance": "CCCN1CCN(c2ccc3c(c2)C2CC3CCN2C(=O)OCc2ccccc2)CC1 (stereo not shown)", "tested on": "Alpha-2C adrenergic receptor (ADRA2C, Homo sapiens, UniProt P18825)", "assay": "binding, radioligand binding", "measurement": "Ki", "result": "0.539 µM"}
{"Substance": "Cc1ccc(CCNC(=O)c2cnn3c(O)c(Cc4cc(C)ccc4C)c(C)nc23)cc1", "assay": "dynamic light scattering", "test system": "assay buffer", "setting": "40 µM, with Tween 20", "measurement": "particle size", "result": "7.1 nm"}
{"Substance": "O=C(Nc1nc(-c2ccc3ccccc3c2)cs1)c1cccs1", "tested on": "ALB", "assay": "binding, fluorescence quenching", "setting": "pH 7.4", "measurement": "IC50", "result": "12.7 µM"}
{"Substance": "O=C(Nc1ccccc1)c1cc([N+](=O)[O-])ccc1Cl", "tested on": "Salmonella typhimurium", "assay": "Ames plate incorporation", "test system": "TA98", "setting": "500 µg/plate, without metabolic activation", "measurement": "revertants", "result": "272 ± 3 revertants/plate"}
{"Substance": "CO[C@]12CC[C@@]3(C[C@@H]1C(C)(C)O)[C@H]1Cc4ccc(O)c5c4[C@@]3(CCN1CC1CC1)[C@H]2O5", "tested on": "Cytochrome P450 3A4 (CYP3A4, Homo sapiens, UniProt P08684)", "assay": "human liver microsomes", "setting": "10 µM", "measurement": "inhibition", "result": "35.3%"}
{"Substance": "C[C@H](Cc1ccc(O)c(O)c1)[C@@H](C)Cc1ccc(O)c(O)c1", "test system": "SKH-1 hairless mice", "setting": "topical, 3%", "measurement": "toxicity", "result": "not toxic"}
{"Substance": "CCCc1nn2c(=O)cc(CSc3nc(-c4ccc(C)cc4)nc4cc(=O)[nH]n34)nc2s1", "assay": "dynamic light scattering", "test system": "assay buffer", "setting": "40 µM, without Tween 20", "measurement": "particle size", "result": "268 nm"}
{"Substance": "C=C[C@@H]1[C@H]2CCC[C@]1(c1cccc(O)c1)CCN2CCc1ccccc1", "test system": "human cytosol 2 mg/mL", "setting": "1 µM, pH 7.4", "measurement": "half-life", "result": "> 2 h"}
{"Substance": "CO[C@]12CC[C@@]3(C[C@@H]1C(C)(C)O)[C@H]1Cc4ccc(O)c5c4[C@@]3(CCN1CC1CC1)[C@H]2O5", "tested on": "ATP-dependent translocase ABCB1 (ABCB1, Homo sapiens, UniProt P08183)", "assay": "P-gp ATPase activity", "setting": "100 µM, 40 min", "scale": "baseline: basal activity, negative means inhibition", "measurement": "fold stimulation", "result": "-0.91 ± 0.96 fold"}
{"Substance": "c1ccc(N2CCN(c3nc4cc5c(cc4s3)OCO5)CC2)cc1", "tested on": "ALB", "assay": "binding, fluorescence quenching", "setting": "pH 7.4", "measurement": "IC50", "result": "95.1 µM"}
{"note": "For quick reference, copied from above:"}
{"Substance": "CCCN1CCN(c2ccc3c(c2)C2CC3CCN2C(=O)OCc2ccccc2)CC1 (stereo not shown)", "tested on": "Alpha-2C adrenergic receptor (ADRA2C, Homo sapiens, UniProt P18825)", "assay": "binding, radioligand binding", "measurement": "Ki", "result": "0.539 µM"}
{"Substance": "CCCSc1nc(N[C@@H]2C[C@H]2c2ccc(F)c(F)c2)c2nnn([C@@H]3C[C@H](OCCO)[C@@H](O)[C@H]3O)c2n1", "test system": "STEMI patients, plasma", "setting": "180 mg loading dose, 6 h, median, added: morphine", "measurement": "AUC(0-6 h)", "result": "579 ng·h/mL"}
{"Substance": "[N-]=[N+]=NCCCCCCCC(=O)O", "tested on": "Escherichia coli", "setting": "concentration not given", "measurement": "growth reduction", "result": "≤ 50%"}
{"Substance": "C[C@H](Cc1ccc(O)c(O)c1)[C@@H](C)Cc1ccc(O)c(O)c1", "test system": "SKH-1 hairless mice", "setting": "topical, 3%", "measurement": "toxicity", "result": "not toxic"}
